Values quoted from earlier work as cited in several papers.
Protocols differ between the studies behind these lines. ± marks the error that the study gave.

Cn1c(Cn2ccc(C(F)(F)F)c(Oc3cc(Cl)cc(C#N)c3)c2=O)n[nH]c1=O — EC50 (HIV-1; viral replication; MT-4, L100I mutant): 0.0133 ± 0.0998 µM
C[C@H]1CO[C@@H]2Cn3cc(C(=O)NCc4ccc(F)cc4F)c(=O)c(O)c3C(=O)N12 — EC50 (HIV-1; viral replication, single-round vector infection; IN N155H): 0.0022 ± 0.0003 µM
CN(C)CCCN1c2ccccc2Sc2ccc(Cl)cc21 — EC50 (MERS-CoV; viral replication, ELISA; Vero E6): 9.51 µM
C[C@@H]1CCO[C@H]2Cn3cc(C(=O)NCc4ccc(F)cc4F)c(=O)c(O)c3C(=O)N12 — EC50 (HIV-1; viral replication, single-round vector infection; IN R263K): 0.0052 ± 0.0006 µM
CCC(CC)COC(=O)[C@H](C)N[P@](=O)(OC[C@H]1O[C@@](C#N)(c2ccc3c(N)ncnn23)[C@H](O)[C@@H]1O)Oc1ccccc1 — EC50 (SARS-CoV-2; cytopathic effect; Vero E6 cells; 72 h): 9 µM
O=C(NCc1c(F)cc(F)cc1F)c1cn2c(c(O)c1=O)C(=O)N1[C@H]3CC[C@H](C3)O[C@@H]1C2 — EC50 (HIV-1; viral replication, single-round vector infection; IN G140S/Q148H): 0.0046 ± 0.0004 µM
C[C@@H]1C[C@H]2[C@@H]3CCC4=CC(=O)C=C[C@]4(C)[C@@]3(F)[C@@H](O)C[C@]2(C)[C@@]1(O)C(=O)CO — Cmax (human, plasma; intravenous, 4 mg): > 0.1 µg/mL
tirzepatide — body weight loss (human; dose not given): ≤ 20.9%
O=C(c1cc(=O)[nH]c2ccccc12)N1CCN(c2ccc(Cl)c(Cl)c2)CC1CN1CCOCC1 (stereo not drawn) — IC50 (SARS-CoV-2 3CL protease; enzyme activity, inhibitor): 0.15 µM
CN(C)CCOc1ccc(/C(=C(/CCCl)c2ccccc2)c2ccccc2)cc1 — EC50 (MERS-CoV; viral replication, ELISA; Vero E6): 12.9 µM
Cn1cnc(Cn2c(=O)[nH]/c(=N\c3cc4cn(C)nc4cc3Cl)n(Cc3cc(F)c(F)cc3F)c2=O)n1 — IC50 (human protease panel; enzyme activity, inhibitor; off-target): > 100 µM
CCSc1ccc2c(c1)N(CCCN1CCN(C)CC1)c1ccccc1S2 — EC50 (MERS-CoV; viral replication, ELISA; Vero E6): 7.87 µM
CC(C)(C)[C@H](NC(=O)C(F)(F)F)C(=O)N1C[C@H]2[C@@H]([C@H]1C(=O)N[C@H](C#N)C[C@@H]1CCNC1=O)C2(C)C — CC50 (Huh-7; cytotoxicity): > 100 µM
O=C1NCN(c2ccccc2)C12CCN(CCCC(c1ccc(F)cc1)c1ccc(F)cc1)CC2 — EC50 (MERS-CoV; viral replication, ELISA; Vero E6): 7.48 µM
C[C@@H]1CCO[C@H]2Cn3cc(C(=O)NCc4ccc(F)cc4F)c(=O)c(O)c3C(=O)N12 — EC50 (HIV-1; viral replication; integrase Y143R mutant): 0.0043 ± 0.0012 µM
CCN(CC)CCOc1ccc(C(O)(Cc2ccc(Cl)cc2)c2ccc(C)cc2)cc1 (stereo not drawn) — IC50 (Ebola virus; viral replication, eGFP reporter virus; Vero E6): 1.92 µM
C[C@H](NC(=O)[C@@H](c1cccnc1)N(C(=O)c1ccco1)c1ccc(-c2ccccc2)cc1)c1ccccc1 — IC50 (SARS-CoV-2 3CL protease; enzyme activity, inhibitor): 0.2 µM
CCc1cc(F)c(Cc2cnc(Nc3ccc(C#N)c(Cl)c3)o2)c(F)c1 — EC50 (HIV-1; viral replication; Y181C mutant): 0.007 µM

A few entries again:
CN(C)CCCN1c2ccccc2Sc2ccc(Cl)cc21 — EC50 (MERS-CoV; viral replication, ELISA; Vero E6): 9.51 µM
C[C@@H]1CCO[C@H]2Cn3cc(C(=O)NCc4ccc(F)cc4F)c(=O)c(O)c3C(=O)N12 — EC50 (HIV-1; viral replication, single-round vector infection; IN R263K): 0.0052 ± 0.0006 µM
CCC(CC)COC(=O)[C@H](C)N[P@](=O)(OC[C@H]1O[C@@](C#N)(c2ccc3c(N)ncnn23)[C@H](O)[C@@H]1O)Oc1ccccc1 — EC50 (SARS-CoV-2; cytopathic effect; Vero E6 cells; 72 h): 9 µM
